Published values collected from several papers.
Compare with care: the assays were run in different laboratories. Numbers after ± are the reported error.
RPA1 N-terminal domain: Replication protein A 70 kDa DNA-binding subunit, N-terminal domain (RPA1, Homo sapiens, UniProt P27694)
WEE1/CRBN: WEE1/CRBN (Homo sapiens, UniProt P30291+Q96SW2)

Chains of the proteins cited; added tags and fusions are not shown.
UniProt P30291, whole entry: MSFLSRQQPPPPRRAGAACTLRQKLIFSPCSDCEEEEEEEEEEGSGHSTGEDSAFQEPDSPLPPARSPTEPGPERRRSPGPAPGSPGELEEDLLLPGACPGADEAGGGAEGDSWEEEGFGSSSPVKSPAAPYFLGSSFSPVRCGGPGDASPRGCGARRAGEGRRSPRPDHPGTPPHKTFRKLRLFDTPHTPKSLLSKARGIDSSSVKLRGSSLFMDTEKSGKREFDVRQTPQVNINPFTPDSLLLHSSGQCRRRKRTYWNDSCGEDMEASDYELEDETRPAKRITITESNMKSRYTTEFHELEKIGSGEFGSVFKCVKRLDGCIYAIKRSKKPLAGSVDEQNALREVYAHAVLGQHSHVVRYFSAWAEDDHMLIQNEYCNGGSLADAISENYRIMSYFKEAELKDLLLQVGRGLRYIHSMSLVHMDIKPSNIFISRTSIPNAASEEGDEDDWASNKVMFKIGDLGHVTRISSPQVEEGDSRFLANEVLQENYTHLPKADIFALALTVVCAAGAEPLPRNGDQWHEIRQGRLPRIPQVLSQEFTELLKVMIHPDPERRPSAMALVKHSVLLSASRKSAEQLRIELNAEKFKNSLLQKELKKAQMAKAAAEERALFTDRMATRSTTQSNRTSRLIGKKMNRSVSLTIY
UniProt Q96SW2, whole entry: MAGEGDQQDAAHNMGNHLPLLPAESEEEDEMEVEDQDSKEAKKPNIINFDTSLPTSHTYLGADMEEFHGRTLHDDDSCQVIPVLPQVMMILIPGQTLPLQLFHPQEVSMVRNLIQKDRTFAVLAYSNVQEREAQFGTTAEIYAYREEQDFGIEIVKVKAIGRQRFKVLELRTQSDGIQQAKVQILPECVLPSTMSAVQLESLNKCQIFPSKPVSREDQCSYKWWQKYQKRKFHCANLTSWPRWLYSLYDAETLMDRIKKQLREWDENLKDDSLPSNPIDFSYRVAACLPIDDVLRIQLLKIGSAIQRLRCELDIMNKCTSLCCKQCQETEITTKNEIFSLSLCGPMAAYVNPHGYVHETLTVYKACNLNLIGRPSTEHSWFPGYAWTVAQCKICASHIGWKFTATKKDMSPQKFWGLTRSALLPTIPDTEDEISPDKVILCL
UniProt Q8TDQ0, whole entry, looked up: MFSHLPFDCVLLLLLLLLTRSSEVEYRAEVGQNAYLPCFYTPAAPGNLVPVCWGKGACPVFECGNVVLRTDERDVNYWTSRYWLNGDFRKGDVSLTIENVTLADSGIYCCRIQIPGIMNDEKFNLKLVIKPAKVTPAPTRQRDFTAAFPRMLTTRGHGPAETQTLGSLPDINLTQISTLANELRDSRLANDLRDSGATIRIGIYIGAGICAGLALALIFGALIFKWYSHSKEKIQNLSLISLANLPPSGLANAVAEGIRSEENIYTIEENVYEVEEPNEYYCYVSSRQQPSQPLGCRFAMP
UniProt Q86U86, whole entry L207V, looked up: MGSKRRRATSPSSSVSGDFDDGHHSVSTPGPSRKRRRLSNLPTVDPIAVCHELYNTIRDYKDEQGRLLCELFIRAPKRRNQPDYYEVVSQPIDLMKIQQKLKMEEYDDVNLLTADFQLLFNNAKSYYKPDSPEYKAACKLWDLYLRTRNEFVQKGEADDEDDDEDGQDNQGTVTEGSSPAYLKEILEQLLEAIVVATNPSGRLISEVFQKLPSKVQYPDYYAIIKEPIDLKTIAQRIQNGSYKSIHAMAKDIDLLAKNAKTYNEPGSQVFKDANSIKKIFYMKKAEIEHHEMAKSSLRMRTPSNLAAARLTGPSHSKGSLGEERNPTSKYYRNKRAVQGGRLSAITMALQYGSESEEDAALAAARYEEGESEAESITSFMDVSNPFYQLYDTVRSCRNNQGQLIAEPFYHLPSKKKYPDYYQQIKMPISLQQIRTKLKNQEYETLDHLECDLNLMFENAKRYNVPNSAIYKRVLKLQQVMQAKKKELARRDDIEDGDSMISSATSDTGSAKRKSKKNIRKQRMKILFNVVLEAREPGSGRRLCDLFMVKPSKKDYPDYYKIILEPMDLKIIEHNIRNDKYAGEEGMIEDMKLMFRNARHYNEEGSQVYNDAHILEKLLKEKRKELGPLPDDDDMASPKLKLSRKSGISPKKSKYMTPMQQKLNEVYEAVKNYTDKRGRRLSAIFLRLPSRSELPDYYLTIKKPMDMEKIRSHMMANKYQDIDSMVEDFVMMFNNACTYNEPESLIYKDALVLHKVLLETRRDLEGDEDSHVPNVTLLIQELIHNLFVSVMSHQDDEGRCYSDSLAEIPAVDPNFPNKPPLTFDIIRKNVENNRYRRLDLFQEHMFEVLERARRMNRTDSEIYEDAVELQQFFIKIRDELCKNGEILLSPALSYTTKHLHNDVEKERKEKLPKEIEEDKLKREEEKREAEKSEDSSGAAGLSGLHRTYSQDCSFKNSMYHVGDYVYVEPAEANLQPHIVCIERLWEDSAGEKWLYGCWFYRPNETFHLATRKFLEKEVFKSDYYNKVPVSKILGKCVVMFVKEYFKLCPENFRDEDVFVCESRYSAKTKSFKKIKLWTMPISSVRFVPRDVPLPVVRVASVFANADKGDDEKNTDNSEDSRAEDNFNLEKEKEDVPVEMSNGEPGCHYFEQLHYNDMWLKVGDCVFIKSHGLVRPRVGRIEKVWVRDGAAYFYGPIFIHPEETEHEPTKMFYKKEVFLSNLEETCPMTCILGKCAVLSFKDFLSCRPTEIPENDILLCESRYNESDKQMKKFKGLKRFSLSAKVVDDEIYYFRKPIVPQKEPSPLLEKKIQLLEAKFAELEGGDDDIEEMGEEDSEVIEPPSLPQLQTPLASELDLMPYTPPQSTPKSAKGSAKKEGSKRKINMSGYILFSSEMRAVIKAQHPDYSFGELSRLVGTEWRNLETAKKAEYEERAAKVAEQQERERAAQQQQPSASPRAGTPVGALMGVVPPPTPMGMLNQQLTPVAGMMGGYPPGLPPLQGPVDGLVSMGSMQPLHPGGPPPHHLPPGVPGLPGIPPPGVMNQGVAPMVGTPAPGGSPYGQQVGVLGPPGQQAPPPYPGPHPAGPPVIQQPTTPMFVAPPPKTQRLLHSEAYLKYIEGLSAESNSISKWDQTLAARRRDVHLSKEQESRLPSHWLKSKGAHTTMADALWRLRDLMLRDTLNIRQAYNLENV
UniProt Q7Z6A9, whole entry, looked up: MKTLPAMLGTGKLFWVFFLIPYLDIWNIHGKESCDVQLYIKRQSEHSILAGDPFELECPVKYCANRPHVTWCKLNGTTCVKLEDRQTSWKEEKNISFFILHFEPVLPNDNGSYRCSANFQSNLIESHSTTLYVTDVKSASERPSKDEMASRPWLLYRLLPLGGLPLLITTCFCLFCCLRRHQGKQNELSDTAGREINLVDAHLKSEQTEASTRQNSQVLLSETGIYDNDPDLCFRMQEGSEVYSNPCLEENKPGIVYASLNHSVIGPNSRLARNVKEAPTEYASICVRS
UniProt Q9UHM6, whole entry: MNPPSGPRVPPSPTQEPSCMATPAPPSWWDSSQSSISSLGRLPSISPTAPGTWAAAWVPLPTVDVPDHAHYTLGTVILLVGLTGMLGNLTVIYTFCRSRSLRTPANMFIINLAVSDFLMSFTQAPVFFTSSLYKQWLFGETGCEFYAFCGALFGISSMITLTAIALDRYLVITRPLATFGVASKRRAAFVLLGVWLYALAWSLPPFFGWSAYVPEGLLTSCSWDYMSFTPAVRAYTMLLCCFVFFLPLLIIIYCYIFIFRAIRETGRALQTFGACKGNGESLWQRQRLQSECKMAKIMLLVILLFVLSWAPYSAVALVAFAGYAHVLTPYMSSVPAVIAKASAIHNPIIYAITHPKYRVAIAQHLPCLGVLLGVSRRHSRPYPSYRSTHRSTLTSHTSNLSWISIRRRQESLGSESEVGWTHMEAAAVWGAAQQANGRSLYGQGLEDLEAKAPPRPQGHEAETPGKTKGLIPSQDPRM
UniProt Q8VIJ5, whole entry: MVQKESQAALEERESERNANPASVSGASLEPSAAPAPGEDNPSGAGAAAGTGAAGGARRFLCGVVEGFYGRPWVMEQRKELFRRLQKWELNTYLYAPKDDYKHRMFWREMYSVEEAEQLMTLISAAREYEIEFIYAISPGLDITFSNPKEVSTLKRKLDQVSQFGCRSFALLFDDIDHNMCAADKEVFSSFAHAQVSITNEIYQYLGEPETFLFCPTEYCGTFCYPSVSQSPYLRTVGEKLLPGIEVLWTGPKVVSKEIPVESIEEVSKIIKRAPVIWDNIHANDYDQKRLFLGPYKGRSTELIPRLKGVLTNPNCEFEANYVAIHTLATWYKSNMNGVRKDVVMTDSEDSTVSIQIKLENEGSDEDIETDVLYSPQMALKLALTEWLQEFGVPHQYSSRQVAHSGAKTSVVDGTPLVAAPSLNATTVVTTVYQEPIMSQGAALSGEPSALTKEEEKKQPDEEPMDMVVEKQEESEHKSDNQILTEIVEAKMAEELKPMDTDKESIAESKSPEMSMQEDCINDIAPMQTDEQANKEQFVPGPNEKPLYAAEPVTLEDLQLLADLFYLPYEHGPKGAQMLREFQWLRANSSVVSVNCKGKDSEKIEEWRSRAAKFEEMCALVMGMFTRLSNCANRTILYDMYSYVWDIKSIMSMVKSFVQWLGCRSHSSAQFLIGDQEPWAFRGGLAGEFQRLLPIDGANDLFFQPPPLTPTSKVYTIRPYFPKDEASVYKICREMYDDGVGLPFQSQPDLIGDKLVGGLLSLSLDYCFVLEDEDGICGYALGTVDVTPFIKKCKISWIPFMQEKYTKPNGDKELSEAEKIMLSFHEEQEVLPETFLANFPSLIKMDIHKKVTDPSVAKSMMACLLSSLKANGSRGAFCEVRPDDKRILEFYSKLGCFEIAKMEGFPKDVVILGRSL
UniProt Q16531, whole entry partner: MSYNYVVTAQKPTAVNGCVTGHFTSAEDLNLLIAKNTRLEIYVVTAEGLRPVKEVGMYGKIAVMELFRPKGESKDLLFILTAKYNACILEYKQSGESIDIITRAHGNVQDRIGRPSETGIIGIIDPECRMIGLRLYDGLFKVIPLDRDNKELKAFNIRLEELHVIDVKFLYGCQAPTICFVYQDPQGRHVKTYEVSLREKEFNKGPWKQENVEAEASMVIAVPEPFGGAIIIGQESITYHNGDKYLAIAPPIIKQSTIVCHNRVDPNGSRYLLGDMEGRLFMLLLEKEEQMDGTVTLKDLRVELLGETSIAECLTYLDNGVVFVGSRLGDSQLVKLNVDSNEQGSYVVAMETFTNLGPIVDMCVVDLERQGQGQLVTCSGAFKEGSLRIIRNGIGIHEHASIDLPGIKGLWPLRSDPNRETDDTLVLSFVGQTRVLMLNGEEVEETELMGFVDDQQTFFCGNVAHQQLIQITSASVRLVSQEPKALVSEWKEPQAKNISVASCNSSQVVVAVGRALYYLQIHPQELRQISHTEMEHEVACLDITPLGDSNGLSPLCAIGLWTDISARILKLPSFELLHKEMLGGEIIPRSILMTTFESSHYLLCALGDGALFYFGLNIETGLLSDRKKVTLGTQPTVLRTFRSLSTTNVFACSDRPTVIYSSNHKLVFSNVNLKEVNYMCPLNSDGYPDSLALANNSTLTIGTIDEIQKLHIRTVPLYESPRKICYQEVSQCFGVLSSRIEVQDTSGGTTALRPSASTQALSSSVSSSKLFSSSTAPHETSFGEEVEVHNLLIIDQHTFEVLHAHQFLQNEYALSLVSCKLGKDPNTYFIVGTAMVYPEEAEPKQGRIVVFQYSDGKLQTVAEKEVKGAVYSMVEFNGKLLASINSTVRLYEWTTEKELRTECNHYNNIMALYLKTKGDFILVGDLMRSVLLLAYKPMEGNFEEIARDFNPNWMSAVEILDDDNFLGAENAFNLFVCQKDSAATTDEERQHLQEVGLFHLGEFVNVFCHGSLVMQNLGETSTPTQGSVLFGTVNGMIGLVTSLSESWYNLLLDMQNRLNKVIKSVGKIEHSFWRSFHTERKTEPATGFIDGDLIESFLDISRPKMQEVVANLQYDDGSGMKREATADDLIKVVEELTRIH

COC(=O)[C@@]1(C)C=C(C(=O)Nc2cccc(C(=O)NC34CC(Nc5nccc(-c6cccnc6)n5)(C3)C4)c2)C(=O)CC1 — remaining activity (Mitogen-activated protein kinase 9 (MAPK9, Homo sapiens, UniProt P45984); enzyme activity, inhibitor; 0.5487 µM): 0.138 fraction of control
Cc1ccc(C(=O)Nc2cc(F)ccc2C(=O)O)cc1S(=O)(=O)Nc1cccc(Cl)c1 — Kd (RPA1 N-terminal domain; binding, fluorescence polarisation competition; together with: FITC-ATRIP probe): 22000 ± 3000 nM
O=C(NCCCN1CCN(c2cccc(Cl)c2)CC1)C1CCCN(c2ccncc2)C1 (stereo not shown) — Kd (Hepatitis A virus cellular receptor 2 (Homo sapiens, UniProt Q8TDQ0); microscale thermophoresis): 880 nM
Cc1cccc(C2NC(=O)c3c(Cl)cccc3N2)c1 (racemic) — Kd (Protein polybromo-1, BD2 (PBRM1, Homo sapiens, UniProt Q86U86, L207V); ITC; mutant, racemate): 5000 ± 2000 nM
CCc1ccc(NC(=O)c2ccc(C)c(S(=O)(=O)Nc3cccc(Cl)c3)c2)c(C(=O)O)c1 — Kd (RPA1 N-terminal domain; binding, fluorescence polarisation competition; together with: FITC-ATRIP probe): 6000 ± 370 nM
O=c1c2c(-c3ccccc3)csc2ncn1N=Cc1ccc(O)c([N+](=O)[O-])c1 — Kd (B- and T-lymphocyte attenuator (BTLA, Homo sapiens, UniProt Q7Z6A9); binding, microscale thermophoresis): 9020 nM
COC(=O)[C@@H]1C(C=Nc2cncnc2N)=Cc2cc3c(cc2[C@H]1c1cc(OC)c(OC)c(OC)c1)OCO3 — selectivity index (Leishmania; mouse splenocytes; reference: CC50 over amastigote EC50): > 1.5
COCCN1CCN(S(=O)(=O)c2cc(Cl)ccc2Cl)CC1 — Kb (Melanopsin (OPN4, Homo sapiens, UniProt Q9UHM6); calcium release, antagonist, FLIPR Fluo-4; CHO cells expressing human OPN4): 3000 nM
Nc1nc2ccccn2c1C(=O)c1ccc2c(c1)CN(C1CCC(=O)NC1=O)C2=O (stereo not shown) — DC50 (WEE1/CRBN; degrader, HiBiT luciferase; Jurkat (HiBiT-tagged); 5 h): 91 ± 30 nM
COc1cc([C@@H]2c3cc4c(cc3[C@@H](OC(C)C)[C@H]3COC(=O)[C@H]23)OCO4)cc(OC)c1OC — selectivity index (Leishmania infantum; Alamar Blue; HepG2; reference: CC50 HepG2 over EC50 amastigotes): > 1.3
Cc1ccc(C(=O)Nc2ccccc2C(=O)O)cc1S(=O)(=O)Nc1ccc2ccccc2c1 — Kd (RPA1 N-terminal domain; binding, fluorescence polarisation competition; together with: FITC-ATRIP probe): 83000 ± 8000 nM
Cc1c(=O)n(C)c(Nc2ccc(I)cc2F)c2c(=O)n(C3CC3)c(=O)n(-c3cccc(NC(=O)CCOCCOCCNC(=O)CCC4=[N+]5C(=Cc6ccc(-c7ccc[nH]7)n6[B-]5(F)F)C=C4)c3)c12 — EC50 (Dual specificity mitogen-activated protein kinase kinase 1 (MAP2K1, Homo sapiens, UniProt Q02750); binding, NanoBRET; HEK-293T; wild-type MEK1-NanoLuc): 9.9 ± 0.4 nM
CC(C)(C)Nc1c(-c2ccc3c(c2)CN(C2CCC(=O)NC2=O)C3=O)nc2ccccn12 (stereo not shown) — DC50 (WEE1/CRBN; degrader, HiBiT luciferase; Jurkat (HiBiT-tagged); 5 h): 3.1 ± 1.4 nM
CC(=O)Nc1ncc(CN2CC[C@H](Oc3cccc(F)n3)C[C@@H]2C)s1 [isotope labelled] — Kd (Protein O-GlcNAcase (Rattus norvegicus, UniProt Q8VIJ5); saturation binding; rat cortex homogenate; radiolabelled compound): 3.6 ± 0.8 nM
O=C1CCC(N2Cc3cc(-c4nc5ccccn5c4Cl)ccc3C2=O)C(=O)N1 (stereo not shown) — DC50 (WEE1/CRBN; degrader, HiBiT luciferase; Jurkat (HiBiT-tagged); 5 h): 10 ± 8 nM
Cc1ccc(C(=O)Nc2cccc(C)c2C(=O)O)cc1S(=O)(=O)Nc1cccc(Cl)c1 — Kd (RPA1 N-terminal domain; binding, fluorescence polarisation competition; together with: FITC-ATRIP probe): 134000 ± 1000 nM

Excerpt of the above:
CC(=O)Nc1ncc(CN2CC[C@H](Oc3cccc(F)n3)C[C@@H]2C)s1 [isotope labelled] — Kd (Protein O-GlcNAcase (Rattus norvegicus, UniProt Q8VIJ5); saturation binding; rat cortex homogenate; radiolabelled compound): 3.6 ± 0.8 nM
O=C1CCC(N2Cc3cc(-c4nc5ccccn5c4Cl)ccc3C2=O)C(=O)N1 (stereo not shown) — DC50 (WEE1/CRBN; degrader, HiBiT luciferase; Jurkat (HiBiT-tagged); 5 h): 10 ± 8 nM
